Experimental data collected from several papers.
Each numbered part is a random draw from the data of one study; scales do not carry over between parts. Changes are numbered by the printed parent chain.

Sample 1 — target: CREB3L2, bZIP domain (human); technique: DHFR protein complementation; medium: yeast; baseline: wild-type JUN-FOS pair; reading: higher = stronger binding
Notes: single substitutions, most at no-binding floor
Starting sequence: JUN, bZIP domain (human); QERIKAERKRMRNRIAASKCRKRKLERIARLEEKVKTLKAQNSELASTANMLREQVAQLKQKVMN; partner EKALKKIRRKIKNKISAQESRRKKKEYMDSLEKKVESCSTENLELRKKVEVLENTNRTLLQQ
The binding fitness of `A57K` is reported as -1.44 natural log.
With `I28L` the binding fitness was -1.46 natural log.
The binding fitness of `K34D` is reported as -1.5 natural log.
`T37M` gave a binding fitness of -1.45 natural log.
`I28H` has a binding fitness of -1.46 natural log.
With `E44L` the binding fitness was -1.41 natural log.
With `A57M` the binding fitness was -1.37 natural log.
The binding fitness of `S47R` is reported as -1.35 natural log.

Sample 2 — technique: protein-binding microarray; molecule type: double-stranded DNA, one strand shown; medium: in vitro; concentration: 250 nM; notes: 60-bp whole probe; added: salmon DNA 0.4 mg/ml; baseline: random background probes; reading: higher = stronger binding; constant ends, left off below: GCCTAGCAC … GTCTTGATTCGCTTGACGCTGCTG
Target: Interferon regulatory factor 7, full length, phosphomimetic (IRF7, Homo sapiens, UniProt Q92985, residues 1-503, S101K/S471D/S472D/S475D/S476D/S477D/S483D/S484D/S487D)
Chain of UniProt Q92985 (whole entry, unmodified, looked up): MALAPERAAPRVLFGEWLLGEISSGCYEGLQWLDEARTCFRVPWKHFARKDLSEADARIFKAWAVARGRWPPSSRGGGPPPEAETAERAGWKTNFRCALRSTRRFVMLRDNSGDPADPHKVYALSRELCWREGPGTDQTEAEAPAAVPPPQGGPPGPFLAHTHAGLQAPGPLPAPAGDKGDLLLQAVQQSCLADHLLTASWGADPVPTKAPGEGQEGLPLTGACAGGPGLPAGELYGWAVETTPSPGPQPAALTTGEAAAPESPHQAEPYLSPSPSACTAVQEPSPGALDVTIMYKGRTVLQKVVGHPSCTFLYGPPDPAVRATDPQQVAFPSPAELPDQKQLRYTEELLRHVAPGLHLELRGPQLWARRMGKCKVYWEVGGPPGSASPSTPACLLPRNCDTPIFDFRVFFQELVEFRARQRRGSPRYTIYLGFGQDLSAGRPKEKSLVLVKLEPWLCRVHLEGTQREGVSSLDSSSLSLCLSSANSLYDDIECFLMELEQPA
With `GAAGATTTCAGACTGGAGACGTGCTAG` the log fluorescence was -0.212 z-score.
With `TCAGGTATCCTTATCCTTTAGTGCTAG` the log fluorescence was 0.459 z-score.
For `GACGGTATCCTGATCCTGACGTGCTAG`, the log fluorescence was -0.242 z-score.
`TTAGGTTTCGGTTCCGCTTAGTGCTAG` gave a log fluorescence of 12.4 z-score.
With `TTAGGTTTCGGGACTTGGTTAGTGCTA` the log fluorescence was 3.59 z-score.
`GACGGTTTCGGATATCGGGACGTGCTA` gave a log fluorescence of 6.09 z-score.
`AACGATTTCGGGACTGGAGACGTGCTA` has a log fluorescence of -0.094 z-score.
`TTAGGTTTCGGTATCTGTTAGTGCTAG` gave a log fluorescence of 10.5 z-score.

Sample 3 — technique: RNA Bind-n-Seq; molecule type: RNA; medium: in vitro; concentration: 100 nM; baseline: input RNA pool; reading: higher = stronger binding
Target: RING finger protein unkempt homolog, zinc fingers 1-6, SBP tag (UNK, Homo sapiens, UniProt Q9C0B0, residues 30-357)
Chain of UniProt Q9C0B0 (30-357, looked up): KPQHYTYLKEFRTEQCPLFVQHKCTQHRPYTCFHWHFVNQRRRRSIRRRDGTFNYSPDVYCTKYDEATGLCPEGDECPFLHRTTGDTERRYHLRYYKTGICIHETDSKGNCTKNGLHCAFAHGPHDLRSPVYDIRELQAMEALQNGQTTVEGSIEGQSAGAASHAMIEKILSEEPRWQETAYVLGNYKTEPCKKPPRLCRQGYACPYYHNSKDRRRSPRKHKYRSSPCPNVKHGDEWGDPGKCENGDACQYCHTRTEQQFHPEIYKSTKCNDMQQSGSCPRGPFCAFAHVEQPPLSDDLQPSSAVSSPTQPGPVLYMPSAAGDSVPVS
Notes: RNA with constant flanks, vertebrate orthologous sites, ends assumed
Constant ends, left off below: GGGAGUUCUACAGUCCGACGAUC … CAACAGAGGAUUGAGCAUCA
For `AAAACCCCGAUUUUAGAUGUGAUAUCUAGGCUUUCAUUCCAGUUGUUUUUGUCUUUUGUUUAGAUACCACUUUUAAAUUCUUGCAUUUUAGUAAGAAAGCUAUCUUUUUAUGGAUGUUAG`, the bound/input enrichment was 0.625 ratio.
The bound/input enrichment of `AAGAAAUGCUGGCUGCAAACCCUCAGGAUCGUCCAGAUGCUUUUGAACUAGAACUCAGAUUAGUACAAAUUGCAUUUAAAGAUAGCAGCUGGGAAACGUGACACAUACAUUGUUUGCAAA` is reported as 0.751 ratio.
With `UUCAGGCACAACUGACUGGUUCACAGCAUCCCUUACACAAUUAUCUAUCAAGUGCAAGUAUUGGUAAUUUUCAGGAAACAUCCAGACAGUCAUCUUUAUCCUGUAGCUCAAUUCGAGAUU` the bound/input enrichment was 0.694 ratio.
With `UACCCUCCCAGGACCCAGUGGUGCGGCCUGGGCCCACUGGCCACAUCAGCCAGGCCGUUUCAGCCUUUUUUUUUUUUUUUUUAAUAGUGCCCUUAUUAUUAUCCUAUACAUAUGCAGAGA` the bound/input enrichment was 1.79 ratio.
`AUGUCCUUGGUUACUGUGAUAUUUAAAAUAUCCACAGUACUCACUUUUUCCAAAUGAUUCUAGUAAUUGCCUAGAAAUAUCUUUCUCUUACCUGUUAUUUAUCAAUUUUUCCCAGUAUUU` gave a bound/input enrichment of 1.02 ratio.
The bound/input enrichment of `CGUAAAAUAUUGGAUGCAGUGUAUAAAUUAUCCAAGGCAGUGACUUCAGCUUUAUAUAUAUUGGUAGUUUUAAGGUCAUUUACUUUUAUUUAAACUUCUAGAUCGGACUGUUUGCUAUUG` is reported as 0.519 ratio.
`CGGCUCCAUGGUGGAGGGCUCCGAGCUCAAGAAGGUGCGCUCCAACUCCAGGAUUUACCACCGGUAUUUCCUCCUGGACGCCGACAUGCAGAGCCUGAGGUGGGAGCCGUCCAAGAAGGA` gave a bound/input enrichment of 0.207 ratio.
The bound/input enrichment of `CUGUUGUUAAGCACUGUGUUCCAGACCGUGUCUGACUUUAGUGUAACCUAGGAGAUUUUAUAGUUUUAUUUUAAUGAAAUCCUGCUUGACGCAGAGCAGCGGGGAGAGCAGUGUCUUCUA` is reported as 2.03 ratio.

Single results of other studies
`AAAVRKPIVLKR` has a binding score of -0.459 (Saccharomyces cerevisiae; peptide binding, yeast competitive growth sequencing; peptide, cyclin-Cln2 fusion strain; concentration not given, Cln2 background subtracted; direction not given).

For quick reference, copied from above (sample 3):
`CGGCUCCAUGGUGGAGGGCUCCGAGCUCAAGAAGGUGCGCUCCAACUCCAGGAUUUACCACCGGUAUUUCCUCCUGGACGCCGACAUGCAGAGCCUGAGGUGGGAGCCGUCCAAGAAGGA` gave a bound/input enrichment of 0.207 ratio.
